Assay results of several laboratories.
A part holds a random share of what one study measured.

Block 1
Target: Interferon regulatory factor 5, full length, phosphomimetic (IRF5, Homo sapiens, UniProt Q13568-2, residues 1-514, K96S/S451D/S453D/S456D/S462D)
Method: protein-binding microarray
Molecule type: double-stranded DNA, one strand shown
Sample: in vitro
Tested at: 250 nM
Setting: 60-bp whole probe
With: salmon DNA 0.4 mg/ml
Relative to: random background probes
Direction: higher = stronger binding
Constant ends, left off below: GCCTAGCAC … GTCTTGATTCGCTTGACGCTGCTG
Oligonucleotide | log fluorescence [z-score]
TCATTTACCACATTCTCACTGTGCTAG | 0.897
GACCGTTTCGGTATCGGGACGTGCTAG | 9.62
TTTGCTTTCCTTCTTGAACTGTGCTAG | 1.72
TATGTTCCCTATTTAAGACCGTGCTAG | 0.413
CTCTTTCTCTGCTACCCTTTGGTGCTA | 1.95
TTAGGTCTCGGTCTCGGTTTGTGCTAG | 0.931
TTAGATTTCAGTTGCGATTAGTGCTAG | 3.28
GACGATTTCCGGTTTCGAGACGTGCTA | 4.5
TCACATTGCTTTCTCTTACTGTGCTAG | 2.58
TCATCTCTGGGTCGGGCACTGTGCTAG | -0.312
GACGATTTCGGGACTGGAGTCGTGCTA | 1.87
GACGGTATCCTACTGCTGTCGTGCTAG | -0.276
TCCACTTGTCTTTTCACTTTGTGCTAG | 1.45
GACGGTATCGGGATCGGGACGTGCTAG | 1.33
GACTAACTGAGTTTCGAGACGTGCTAG | 4.58
GACGGACTGCTAGTGCTGACGTGCTAG | -0.725
TTCTTTTTTTTCTTTAAAAGGTGCTAG | 1.64
CCTCTTCTGGATCTCAGACTGTGCTAG | -0.0534
TTAGAATCCAGTTTCGATTAGTGCTAG | 9.87
TTAGAACCGAGACTGGATTAGTGCTAG | 0.241
GACGGTATCTTTTTCCTGACGTGCTAG | 0.607
TCATCTATCAAAAATACAACTGTGCTA | 1.05
TTTTTTTTCTAACTAAAAATGTGCTAG | 1.71
AGTGTCATGTTTCTATGGGCGTGCTAG | 1.01
TTATGTATCGACTATCGGTTAGTGCTA | 8.52

Block 2
Target: Hepatocyte nuclear factor 3-alpha (Foxa1, Mus musculus, UniProt P35582, residues 1-468, full length assumed)
Chain of UniProt P35582 (whole entry, looked up): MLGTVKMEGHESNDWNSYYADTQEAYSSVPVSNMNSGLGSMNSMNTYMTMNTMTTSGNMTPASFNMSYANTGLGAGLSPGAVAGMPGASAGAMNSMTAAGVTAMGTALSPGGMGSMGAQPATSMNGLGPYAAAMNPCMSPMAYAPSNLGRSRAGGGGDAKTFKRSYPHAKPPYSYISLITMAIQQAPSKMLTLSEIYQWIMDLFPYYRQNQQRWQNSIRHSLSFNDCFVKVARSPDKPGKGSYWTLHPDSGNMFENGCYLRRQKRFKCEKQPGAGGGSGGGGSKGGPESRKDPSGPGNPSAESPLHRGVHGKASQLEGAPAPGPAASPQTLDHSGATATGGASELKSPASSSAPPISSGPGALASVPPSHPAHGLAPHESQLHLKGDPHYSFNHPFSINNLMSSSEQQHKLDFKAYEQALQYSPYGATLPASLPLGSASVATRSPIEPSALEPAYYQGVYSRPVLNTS
Method: EMSA with sequencing
Molecule type: double-stranded DNA, one strand shown
Sample: in vitro
Tested at: 10 and 20 nM
Setting: whole designed probe, mean of two concentrations, ends assumed
Relative to: negative control set to 0
Direction: higher = stronger binding
Oligonucleotide | normalised bound fraction [ratio]
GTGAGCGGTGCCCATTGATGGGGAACGTAGTTTCTGCTTTTCTACTTCCTGATAGACCGTTGGGCTTAAAAGGCCAATGAGCTGTCTAAGTTCTTGACTGAATTCTGTCCCAGTTTCCTGTTTACTTAGTAGACTTCTGAGTCCTTTGTAGCAGGCACTTTGTCTCAGTAAAATCAAAATTTCCTGATAGGATTCAGCCATCAACAGTAGGAGTTTTGCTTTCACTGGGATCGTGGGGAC | 0.441
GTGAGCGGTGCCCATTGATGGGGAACAGGTGAATTGGCTGCTTCCATCCTGGCTTGGAACTTCAGACATAGAAGCCTTGGGACTTTCTCAGGACTTTCTCCAGATCTGTCACATGCTCAGCAAACAAGCATCTCTGTGGATCCTGACTCATGCGCCAGGGATGTTGGTGAAACTGTGTGTTGGTCTAGGTACCTAGCCCATGCTAGGTGCTCATCGAATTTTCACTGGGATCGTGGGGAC | 0.104
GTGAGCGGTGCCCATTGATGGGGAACACCCTGTGCACCTTGTCTACGTCAGGGTGCTGTTGAAAGATTATTGAGGCCATGTCTGTAGGAAAGCCAGAGCTTCAAGAACAACAAAAACAATGTAATCTGGACTCCTTTCCTATTCTATTAATTCTATTGAAATTATTGAAAAATAATTGTCCTTGCTTTATTTTAAAATTACATGTATTGGTTTTCATCATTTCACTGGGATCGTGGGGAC | 0.00135
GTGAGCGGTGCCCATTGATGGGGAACCATGTACAAACAAAATATGGGTTGTGTAATTTCAGTAATTCCATGTACAAGTTAAACACTCTGATATTTGCATTTAAAAATTGCACAATTGTCGTAAACATGAATGCTAACAATCTTTTTTTTTTTTCCTGAGACGGAGTCTTGCTCTATCGCCCAGGCTGGAGTGCAGCGGCACAATCTCTGCTTACTGCCATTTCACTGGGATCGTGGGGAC | 0.18
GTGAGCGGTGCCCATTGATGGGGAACCTAAGAGTTGGCAGATCATGCAACAGCCCGGGTCCCTGAATGGCCATGTAGAACATGATCTCTACCCTGACCTATTTTAGACAGTACAATTAAATAAACAAGCAGACTTTTGTAGTAGAAAATCCCTGGAATTTGGGGTTTATTTATTACTAAAGAATAGCTTTGCATCTGGCCCTTGTTTATCTGTCATTTATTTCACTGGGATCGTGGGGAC | 0.33
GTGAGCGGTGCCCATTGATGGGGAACATAAAGATATTATGGTTATATAGAAAAATATCCTTATTTTGACGGCTGTACCATTTGAAGTATTTAGGGGACAAATGTCATGATGCCTATCTATATTTACTTTTAAATTGTTCAGCAAAAATAGCGGTATATAAGTATTTATAATAGATAGTAGATGAATCAAATATGGTCAAATGTTAGTTTTTGTTTTTGATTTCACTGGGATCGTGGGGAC | 0.324
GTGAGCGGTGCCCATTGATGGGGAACATCTTCCCCCTCTTCCTTGCCCCACCAGCTCACCTTCCCGGGTATCTGCAAATAAGTATTTATTTTCAAGCCGGCATTCGTTAACCCTCTTCACGCGCATACTGCTGTTTGCTCTGGATGAATCATGGTCCTTTGGCGACGCCAGGCTCCGGGAGAGCAAAGCACCGTGTCAGGGCCATGATCCGGGGTGGCCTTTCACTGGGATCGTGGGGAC | 0.216
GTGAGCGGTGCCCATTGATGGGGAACATCTTCCCCCTCTTCCTTGCCCCACCAGCTCACCTTCCCGGGTTATTTGCAGATAGGAAAATAAATAAAGCCGGCATTCGTTAACCCTCTTCACGCGCATACTGCTGTTTGCTCTGCATCTAACATGGTCCTTACGCGACGCCAGGCTCCGGGAGAGCAAAGCACCGTGTCAGGCGCATGATCCGGGGTGGCCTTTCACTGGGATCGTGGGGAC | 0.357

Block 3
Target: RNA binding protein fox-1 homolog 2, RRM domain, GST-SBP tag (RBFOX2, Homo sapiens, UniProt O43251-10, residues 100-194)
Method: RNA Bind-n-Seq
Molecule type: RNA
Sample: in vitro
Tested at: 365 nM
Setting: natural RNA segment, single round, ends assumed
Relative to: no-protein control
Direction: higher = stronger binding
Target sequence (chain): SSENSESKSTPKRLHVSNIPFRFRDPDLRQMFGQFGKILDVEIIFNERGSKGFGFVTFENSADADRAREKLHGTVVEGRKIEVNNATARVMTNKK
Oligonucleotide | RBNS enrichment (R)
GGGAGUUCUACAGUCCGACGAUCUUGUCCUCCAGACCAGGCAGCAACAUGGUAUUUAUUUUAAUCAUUAAAGUACAACAUGAGUAGUACAGGUGUAAUUAUGGAUCAUUUUCUAGCAUAGUAUUUCAUACAACUGGAAUUCUCGGGUGCCAA | 0.319
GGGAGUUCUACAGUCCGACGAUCGGGUGGCUGGUUAAUAUCUCACACAGUUUGAAAAAUCAGCCCCUGGUUUCUCCAUGUUUACACUUCAAUCUGCAGGCUUCUUAAAGUGACAGUAUCCCUUAACCUGCCACUGGAAUUCUCGGGUGCCAA | 0.355
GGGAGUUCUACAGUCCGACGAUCUUCCAGCUGUUCCUGCCCGAGCGGUCCCAGGGUGUGCUGGGAACUGAUUCCCCUCCUUUGACUUCUGCCUAGAAGCUUGGGUGCAAAGGGUUUCUUGCAUCUGAUCUUUCUGGAAUUCUCGGGUGCCAA | 0.459
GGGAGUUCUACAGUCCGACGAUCUAGUUUGUGUACAUAUAUACACAUAUAUAUUUUGCACUACACAAACGAUAACAUUUUAAGGACUAAUAUUGCUGAUACUUGAAUAAUCAAUCUCUACUAGGUUAUAAGUAUGGAAUUCUCGGGUGCCAA | 0.503
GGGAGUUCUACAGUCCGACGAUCUGAAGGGCCUGGUCCCUCUCUAGAUAGUGGUUUCUUUAGGGUUAACAAAAGGCUUUUGUUCAUACCAAAGGCUUUUGUGUGUGGAUGGGGGAGAGCCCCCCAGCUUCCUGUGGAAUUCUCGGGUGCCAA | 0.206
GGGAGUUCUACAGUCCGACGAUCGGUUUUCUAUUAAGGUCUCUGCCCCAGGCAUGGUGCUCUAUAUCUUGGCCAAAUAAAUUACUUUCCUUGAAUAUCCAGGAAUCUUUUAGUCUAAAGCAAUGAGGAGUUAUUGGAAUUCUCGGGUGCCAA | 0.394
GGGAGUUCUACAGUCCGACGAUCUCAUUUCUGAUCAAGUAAAUACACCAGCAGUUGUCAUUCAAUGCAGGUUUUUGUACUUAAUUAUAUGGUGAUUUUUUUACUUUUUAAGAGCAGAAACGGAAAUUGACCUCUGGAAUUCUCGGGUGCCAA | 0.411
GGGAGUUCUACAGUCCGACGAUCCUGAUCCCAGGGCUUCCAGGAAAGCUCUGGCUUUGGAGCAGAAGCGGGUUCUAGGACUUAGUGCCCCUCACUCGGUGCCUGGGUUCCUGUGUGUGUGGAAAGGGUAGGGCUGGAAUUCUCGGGUGCCAA | 1.26
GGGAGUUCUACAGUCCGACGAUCAUUUAUCUCAUCUGCAGAUGUUGAGAAUGUAUGCAUUAUGUAAAAUGCUUGUUUUUUUAUCCCUGUUGAGUUUUUUUAAUUAAACGACACAAAACUACUACAUUGCCGAUUGGAAUUCUCGGGUGCCAA | 0.786
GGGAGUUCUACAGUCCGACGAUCAAGACACAUAUUUGUGUGUGUAUGUGUGUGUGUGUGUGUGUGUGUGUAUAAGCAUACAUGGGAAUUUUUCUGAAUGUAAGCAGUUUUGAUGUGUCUGUAUAUCAAUCUGUUGGAAUUCUCGGGUGCCAA | 4.11
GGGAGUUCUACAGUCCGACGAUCAAACUAUCAACAGGUGUACAAGAGUCAUGUUCAUUUAGAAUAGAGCAGUGUAAAUGCUAGGCCUCAGAAAUCUGAAAAAAGAUAGCAAAGAAAGUGGGUUUGGAACGUAUUGGAAUUCUCGGGUGCCAA | 0.721
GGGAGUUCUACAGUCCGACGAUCCUUUUCCAACUUUCGCCUCCGCUAGGAGAUCAGAAAGAAUUCUUGUGACUUCCUGGGCAGCCAUUGAAUUCAUUUUCCAUGAGAAGAUGACAGAGUUAGCCUGUGGCUAUUGGAAUUCUCGGGUGCCAA | 0.295

Block 4
Target: Myc proto-oncogene protein, bHLH-zipper, MAX partner unstated (MYC, Homo sapiens, UniProt P01106, residues 368-449)
Chain of UniProt P01106 (368-449, looked up): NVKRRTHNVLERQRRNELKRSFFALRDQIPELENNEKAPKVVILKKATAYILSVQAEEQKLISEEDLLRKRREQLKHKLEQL
Method: protein-binding microarray
Molecule type: double-stranded DNA, one strand shown
Sample: in vitro
Tested at: not given
Setting: k-mer, scored over probes, only values ≥0.25
Direction: higher = stronger binding
Oligonucleotide | E-score
CGTGATGC | 0.281
ACACGTGG | 0.497
ACATGCAG | 0.307
GCCGCCAC | 0.277
ACACCACG | 0.391
ATGCTGCA | 0.267
CACACCTG | 0.266
AGTGTGCG | 0.273
GCCCCTCC | 0.379
CACCCACA | 0.28
CGGGGCAC | 0.29
AACGAGGG | 0.26
CAGCCACG | 0.375
CGTGGTGA | 0.372
TGGGACCA | 0.263
GACACGCA | 0.326
GCGCATGA | 0.359
ATACACGC | 0.406
CGGCCACG | 0.397
CACGCAGC | 0.368
AGATGCAC | 0.256
AAGCACAC | 0.321
CCAACCAC | 0.324
GAGCGTGA | 0.254
ACGCCTCG | 0.301

Some of these lines once more (block 4):
Oligonucleotide | E-score
TGGGACCA | 0.263
GACACGCA | 0.326
GCGCATGA | 0.359
ATACACGC | 0.406
